Published values gathered from unrelated publications.
Parts stem from different laboratories: compare values within a part only.

Series 1
Target: Prothrombin, mature alpha-thrombin (F2, Homo sapiens, UniProt P00734)
Technique: aptamer microarray, sandwich
Form: DNA with 2'F-ANA
Sample: in vitro
Tested at: 200 nM
Setting: whole 15-mer aptamer, many near background
With: Cy3 exosite-II aptamer, 400 nM
Direction: higher = stronger binding
Oligonucleotide: GGTTGGTGTGGTTGG
Modification | mean fluorescence intensity [a.u.]
2'F-ANA at 1 5 6 7 8 10 11 | 49.9
2'F-ANA at 2 4 6 10 13 15 | 66.7
2'F-ANA at 4 5 6 7 8 9 10 13 15 | 47.8
2'F-ANA at 2 5 6 7 8 9 13 14 | 47
2'F-ANA at 1 2 5 8 12 13 14 | 50
2'F-ANA at 1 3 6 7 9 11 12 14 15 | 93.6
2'F-ANA at 3 7 8 10 11 13 | 615
2'F-ANA at 1 2 4 6 9 10 11 13 14 15 | 54
2'F-ANA at 1 3 4 5 8 9 11 14 | 55.1
2'F-ANA at 1 2 3 4 7 9 10 13 15 | 64.2
2'F-ANA at 1 2 5 8 14 | 44.6
2'F-ANA at 1 2 4 6 7 8 10 | 49.3
2'F-ANA at 2 3 4 9 10 12 15 | 319
2'F-ANA at 1 2 5 8 9 12 13 14 15 | 68.5
2'F-ANA at 2 3 6 7 10 14 15 | 256
2'F-ANA at 1 2 5 10 15 | 49
2'F-ANA at 2 6 13 | 308
2'F-ANA at 1 3 4 9 12 | 425
2'F-ANA at 2 3 4 8 9 10 13 14 | 195
2'F-ANA at 1 2 3 4 6 7 8 9 13 14 | 77.5
2'F-ANA at 1 2 3 6 7 8 9 11 13 14 | 118
2'F-ANA at 2 4 9 11 13 15 | 159
2'F-ANA at 1 4 7 11 | 117
2'F-ANA at 1 2 3 8 11 13 14 15 | 69.2
2'F-ANA at 2 3 6 8 12 14 | 428

Series 2
Target: RNA binding protein fox-1 homolog 2, RRM domain, GST-SBP tag (RBFOX2, Homo sapiens, UniProt O43251-10, residues 100-194)
Technique: RNA Bind-n-Seq
Form: RNA
Sample: in vitro
Tested at: 365 nM
Setting: natural RNA segment, single round, ends assumed
Baseline: no-protein control
Direction: higher = stronger binding
All sequences stand within: GGGAGUUCUACAGUCCGACGAUC … UGGAAUUCUCGGGUGCCAA
Construct (chain): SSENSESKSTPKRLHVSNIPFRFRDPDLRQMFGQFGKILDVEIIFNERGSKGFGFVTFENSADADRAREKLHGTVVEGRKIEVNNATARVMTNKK
Oligonucleotide | RBNS enrichment (R)
UUUUUUUUUGAGACAGAGUCUCGCUCUGUCGCCCAGGCUGGAGGGCAGUGGCACGAUCUCAGCUCACUGCAAGCUCCAACUCCCGGGUUCACGCCAUUCUCCUGCCUCAG | 0.308
UUUAGAGAUGGGAAACAAGCAAGAGCUUGACUUGCCUCCCAUCCCUCAGCCUGUCUGUGGCAGAGCCUGCACCAAAACCCAGAGCUUCUUCCCUCCGUGAGGGCCACGCU | 0.298
UAUUUCCAGCCACCUCCCAUCCCUUCUUCAAGCUUAGCCAGAUCCUAUCUCGCCCAGUGAAAUCACAGGAAGUUUAACGUAUCUCAGAGGCCUUUGAGUUCCCACUCAAU | 0.301
CGUCCGUACCCAGCUAACCUCUCUCCCAUGCUGGAUGAAGAAGUUCUUAACUUCCCAAGCUGCAGAAUAGCAACCUUUUAAGCUUUCACACACUUUCCUCUUAAGAUCCG | 0.398
AAAAUAAAGCUAAUUUUAGGAAGAUAAACCCUAUGUGGGCUUGCUUGUACAUCUGACUGUGGCUGCUCAGCUCUGUUUUGAGAAGGAAAGGGGCCAUCCUUUCUGUGAGC | 0.376
GACAUAUAGCCAAUACAAAUCAAAUGCCGGAGGUGUUUGAUGCCAUAUUUGCAAAUUGCCAUCUAUUGAAAUUCUCGUCACACUACAUAGACAUAAUUGUUAUCUCCUUU | 0.381
GAGGGGCCCUGCCGAGGCAUCAGCUGCUCUGCUCAGUUAGUUUUUAUUCCCGGGGUACCAAGCAGCUGCACAGUCGGUGCCUGGGAGGCACGUAGAGGCCCAGAGAGUCC | 3.61
UAGACUCAAGGGUGUGUGGUAUUUCGCUUUUUAGUACAUUACUUUACUGGAAGCUUAAAAUUUGCUUCUCAGUUGGCCUUUAGAGCAAGAGUGGAAUAGCUGUUUUAUUC | 0.354
UGCAGCUGGGCCUCUCUAUACCCCUGGAUGAACAGCUUGCUCAGGCCCCAGGGUGGCUGCCUCGGCCCUCCCAGCUCUUACACUCAGCUCCAGUGGCUUCUCCUUUCUGU | 0.502
CUUUAAACUAGUAUGUGCAUCAGAUGCUUACAGCAGAAGUUUGCACAGGUAAGAGAAGCUGCCAGUGACGUUCUGUGGGGCCUGGCUUUGGGCAGCUGCUCAUCAUUGAG | 0.32
GACAUAUGAUCCCCACAAACUGUGGGAGUGAUUGGCCAGGCCUUGUUUUGUUUGUUUGUUUGUUUGUGUUUUUGUUCUUUUGAAGAAUAGAGUGGUAUUUAGAAAAUAAA | 3.37
UAAAUCAUUUCAGUAUCCUCUCCAUCACAUGCCUGGCCCUUGCUCCCUUCAGCGCUAGACCAUCAAGUUGGCAUAAAGAAAAAAAAAUGGGUUUGGGCCCUCAGAACCCU | 0.438

Series 3
Target: Fragile X messenger ribonucleoprotein 1, C-terminal low-complexity region (Fmr1, Mus musculus, UniProt P35922)
Technique: RNA Bind-n-Seq
Form: RNA
Sample: in vitro
Tested at: 200 nM
Setting: whole 134-nt RNA, ends assumed
With: 150 mM LiCl
Baseline: input library
Direction: higher = stronger binding
All molecules: 7-deaza-guanosine replaces G
All sequences stand within: GGGAGUUCUACAGUCCGACGAUC … UGGAAUUCUCGGGUGUCAAGG
Oligonucleotide | log2 enrichment
GCAGGAAGUAAAAACAAAUGGAAAUGCUUCGGAUAGUGGCAGGGGUGGGCGUUGCUAAGGAAAGGGUGGGAUGGGAGUGGGUAAAGAGUU | 1.57
UCUCAGCAGGCGCAUCUACACUAGUGACCUGAGGAGAGAAACCCUAACCCCACAAUGGCUGCAUCUUCUCUGAAGACGAGACUGAUGCUC | 0.765
AGUCCUGUGCUACACAUCGUAUGUACCGAAUCAAACCCAAAUUUUUUUAAACCCAAAAAAGUAUUAUGUUACGCCGUUCGGAUCUGCACU | 0.114
UGAAAUGUUUUUUUCUCUGUCUUCUUUCAGGUCUUUGUUGAGUAUGCAAAUGCUGGUGAUUCCAAAGCUGCGCAGAAAUUACUGACUGGA | -1.95
CACAGACAACACGCACCCACACAGACACAGAGGGAAGGGGUUGGGUUGGGGACAGGGUGCACAGCAGGGCGGGGUAGGACCCCAGCCCCU | -0.319
UUUUAAUUUGUUUGUCUCUCAUGAAACUAUGGUCUUUUAAAAAUUAAAGGUUUUUUUUUUCCCCUUAGACGAAACUGCAAAGGAAAUCCG | 0.209
CAAGUCCUGUGCUACACAUCGUAUGUACCGAAUCGGGUUUGGGAGGGAAAAAGGGAAAGUAUUAUGUUACGCCGUUCGGAUCUGCACUUC | -0.696
UAACUUUAGAGGAGGAUCUGAUGGAUAUGGCAGUGGACGUGGAUUUGGGGAUGGCUAUAAUGGGUAUGGAGGAUGACCUGGAGGUGGCAA | 0.133
CCUGUGCUACACAUCGUAUGUACCGAAUCGGGGUGGGGUUUUUUUGGGGAAAAAAAGGGGAAAGUAUUAUGUUACGCCGUUCGGAUCUGC | -1.86
CACAGACAACACGCACCCACACAGACACAGAGGUAAGGGGUUGGGAUGGGGACAGGGUGCACAGCAGGGCGGGGUAGGACCCCAGCCCCU | 0.262
GCAGGAAGUAAAAACAAAUGGAAAUGCUUCGGAUAGUGGCAGGGGUGGGGGUUGCUAAGGAAAGGGUGUGAUGGGAGUGGGUAAAGAGUU | 1.22

Series 4
Target: Histone acetyltransferase KAT6A, both winged helices, GST fusion (KAT6A, Homo sapiens, UniProt Q92794, residues 1-181)
Technique: protein binding microarray
Form: double-stranded DNA, one strand shown
Sample: in vitro
Tested at: not given
Setting: 8-mer, flanks averaged, mean of 2 arrays, mostly near background
Baseline: not given
Direction: higher = stronger binding
Residues (chain): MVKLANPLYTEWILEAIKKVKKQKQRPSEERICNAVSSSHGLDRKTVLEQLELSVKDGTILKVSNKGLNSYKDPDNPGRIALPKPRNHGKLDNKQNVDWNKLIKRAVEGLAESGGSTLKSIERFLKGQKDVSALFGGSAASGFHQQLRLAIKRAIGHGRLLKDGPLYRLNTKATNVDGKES
Oligonucleotide | E-score
CAGACGCC | 0.0295
GTCGTACA | -0.00844
GCAGCGAC | 0.102
CACGGCGG | 0.335
GCGATGAC | 0.133
AACGAACC | 0.00814
ACTTAAGT | -0.0995
CCGGGCCA | 0.176
AATACTCT | -0.0999
ACTTCACC | 0.0948
ATAAAAAT | -0.0488
GACTTCAA | -0.112
CGCACAGA | 0.122
CCGTAGCG | 0.303
GTAGGAAA | -0.0991
CAATGTGA | -0.0282
CTTTGAAC | -0.0525

Repeated from above (series 1):
Modification | mean fluorescence intensity [a.u.]
2'F-ANA at 1 2 3 6 7 8 9 11 13 14 | 118
2'F-ANA at 2 4 9 11 13 15 | 159
2'F-ANA at 1 4 7 11 | 117
2'F-ANA at 1 2 3 8 11 13 14 15 | 69.2
